Published values of several laboratories.
Each numbered part is a random draw from the data of one study; scales do not carry over between parts.

Series 1
Target: RNA binding protein fox-1 homolog 2, RRM domain, GST-SBP tag (RBFOX2, Homo sapiens, UniProt O43251-10, residues 100-194)
Method: RNA Bind-n-Seq
Form: RNA
Medium: in vitro
Tested at: 365 nM
Notes: natural RNA segment, single round, ends assumed
Relative to: no-protein control
Reading: higher = stronger binding
Constant ends, left off below: GGGAGUUCUACAGUCCGACGAUC … UGGAAUUCUCGGGUGCCAA
Residues (chain): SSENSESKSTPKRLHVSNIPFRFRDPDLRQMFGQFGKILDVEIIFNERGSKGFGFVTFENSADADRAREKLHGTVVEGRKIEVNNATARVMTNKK
`GACACUAGAGAUGCCCAUUCCUACUCCCUCCCUUUGGUCACUAGCCACCAUUAUGGUUCCACUGGCUGUUUGUAUAUAGGGUUAUGUAUUAACUCUAGAAUCCCGUGUGC` — result for “RBNS enrichment (R)”: 0.757.
Under “RBNS enrichment (R)”, `CAUGAUGGCAAUAUACAAGUGGUAUUGUUAGGUGGUUUAACUUAGAAUAAAAUGAGAAUUCUUCAGUUAUAUUUUGUACUAUGGUUUAGGGCUAUGACUAAUAUUUCAGG` is recorded as 0.344.
`GGUUAAAGUGGAUGAGGUUGGAAAGAGUUGCCAUAAUGAGGUCCCACGUGGCUUCUUCGAUAGGAGCCACAACUUGGGGUGGGAAGAACUUGUCCCUCAGGCUUGUUGCC`: “RBNS enrichment (R)” 1.35.
Under “RBNS enrichment (R)”, `UUGGGCCCCCUGUUCUUUCUUUCCCAUUAACUUGAGUGACCUGUGUGAGAGACAGACAGAUGCCCCACGAGGAUGGCUGGACAAGGACUUUUACUUUUUAUUACAUAAAA` is recorded as 0.407.
Under “RBNS enrichment (R)”, `UUGAAUGUGUAAGUCCCCACAGAGCAUGGACAGUCGGUGCAGAGUUCCAAGGAAACAAUUAUUGCCUGAUGACCACUUCCAUUUUGUAUACACUCUUUGGUUCGUAUAGG` is recorded as 1.27.
`AUAGAAGAUGCUGAGUGUGUUUGAGAGACUGACAUACAUAAUAGAUGACUUCCUAGGGUUCUGAAAUUCAUAGACUAAGAGAAAACUGUGUAUAGCUUGCCCGAACAGGA` — result for “RBNS enrichment (R)”: 1.82.
For `GCAUGGCCUUCCCUUCCUCUAGACAGAGGAGGGCUCCCAGCAGCCUUUCUAGUUUGGCAGUGCGACUGAGAGAAGAUUCCACACAGGAACAUCUUUCUUCUCCAUCACUC`, “RBNS enrichment (R)” read 0.271.
`CUACCUUAGAUACUAGUUGUCUGAAUUGAGUUACUUUGAUAGGAAAAAUACUUCAUUACCUAAAAUCAUUUUUCAUAGAACUGUUUCAGAAAACCUGACUCUAACUGGUU`: “RBNS enrichment (R)” 0.535.
For `GGAUGACAUCCUGUUUAUUUUCCCAUUUGGAUGCCACAUGGUAUCCAAAGCUGGUAGAGCAGCUAUCAUGCCUCAGGCCAUGGACAUUUGAAUGGGAGCCUCAGGCAUGA`, “RBNS enrichment (R)” read 0.583.
`CGCCCCCCUCCUGCUGGUUCCCCAGCCCUUUUCCCUGGCCCUGGCUUGGAGAAUCUGUUUUCAAUCUCCACUGAUUGCCCCCUUGCUGGCCAGCCCAGGGGCCUUUACCA`: “RBNS enrichment (R)” 0.493.
Under “RBNS enrichment (R)”, `GCACUUGAAGGAAAAGGCCUCUGCUUACAUCACCCUGACUAGGCCCGGCUCUGCUUCCCCAGGAUCUUUGGGUGGUGCUAUCUCCUGCCUCUUGGAGCUCCUGGCGCUCC` is recorded as 0.371.
For `CUUUCCUGAGGACCCGGCAGAAAUGCAGAACCAUCCAUGGACUGUGAUUCUGAGGCUGCUGAGACUGAACAUGUUCACAUUGACAGAAAAACAAGCUGCUCUUUAUAAUA`, “RBNS enrichment (R)” read 0.273.

Series 2
Target: Interferon regulatory factor 5, full length, phosphomimetic (IRF5, Homo sapiens, UniProt Q13568-2, residues 1-514, S451D/S453D/S456D/S462D)
Method: protein-binding microarray
Form: double-stranded DNA, one strand shown
Medium: in vitro
Tested at: 940 nM top
Notes: 60-bp whole probe
Added: salmon DNA 0.4 mg/ml
Relative to: random background probes
Reading: higher = stronger binding
Constant ends, left off below: GCCTAGCAC … GTCTTGATTCGCTTGACGCTGCTG
Under “fitted relative affinity”, `TTCGCTTTCTTTACCACATTGTGCTAG` is recorded as 1.64 z-score.
For `GACGAACGGAGACTGGAGACGTGCTAG`, “fitted relative affinity” read -0.518 z-score.
`GACGCTATCCTACTGCTGACGTGCTAG` — result for “fitted relative affinity”: 0.0233 z-score.
`GACGAACTGAGACTGGAGAGGTGCTAG` — result for “fitted relative affinity”: -0.408 z-score.
`TTAGGTTTCGGTGCCGGTTAGTGCTAG`: “fitted relative affinity” 13.4 z-score.
Under “fitted relative affinity”, `CCCTGTGTCCACAGCTGGATGTGCTAG` is recorded as -0.322 z-score.
Under “fitted relative affinity”, `GACGGTATCGGTATCGGGGCGTGCTAG` is recorded as 8.66 z-score.
`TTAGATTTCCGTTTCGATTAGTGCTAG` — result for “fitted relative affinity”: 4.61 z-score.
`TTAGGTATCCTTATCGTTTAGTGCTAG`: “fitted relative affinity” 0.385 z-score.
For `TTAGATTTCAGACTGGATGAGTGCTAG`, “fitted relative affinity” read -0.446 z-score.
Under “fitted relative affinity”, `TCATTTTTTTTTTACTTACTGTGCTAG` is recorded as 1.76 z-score.
`GACGTTATCGACTTTCGGGACGTGCTA` — result for “fitted relative affinity”: 0.688 z-score.
Under “fitted relative affinity”, `AGATTTTTATCAAATGTGGGAGTGCTA` is recorded as -0.157 z-score.
Under “fitted relative affinity”, `ATGCTACTGCATTTTTTTTTGTGCTAG` is recorded as -0.0252 z-score.
Under “fitted relative affinity”, `GACGGTATCCTAGTGCTGACGTGCTAG` is recorded as -0.547 z-score.
Under “fitted relative affinity”, `TCTGTTTTTGCTTTCTTTATGTGCTAG` is recorded as 2.39 z-score.
For `GACGCTATCGGTCTCGGGACGTGCTAG`, “fitted relative affinity” read 1.43 z-score.
`TTTGGTTTCCTACTGCTTTAGTGCTAG` — result for “fitted relative affinity”: 1.79 z-score.
`TTAGGTATCCTTATGCTTTAGTGCTAG`: “fitted relative affinity” 0.147 z-score.

Series 3
Target: Ras GTPase-activating protein-binding protein 1, full length (G3BP1, Homo sapiens, UniProt Q13283)
UniProt Q13283, sequence (whole entry, looked up): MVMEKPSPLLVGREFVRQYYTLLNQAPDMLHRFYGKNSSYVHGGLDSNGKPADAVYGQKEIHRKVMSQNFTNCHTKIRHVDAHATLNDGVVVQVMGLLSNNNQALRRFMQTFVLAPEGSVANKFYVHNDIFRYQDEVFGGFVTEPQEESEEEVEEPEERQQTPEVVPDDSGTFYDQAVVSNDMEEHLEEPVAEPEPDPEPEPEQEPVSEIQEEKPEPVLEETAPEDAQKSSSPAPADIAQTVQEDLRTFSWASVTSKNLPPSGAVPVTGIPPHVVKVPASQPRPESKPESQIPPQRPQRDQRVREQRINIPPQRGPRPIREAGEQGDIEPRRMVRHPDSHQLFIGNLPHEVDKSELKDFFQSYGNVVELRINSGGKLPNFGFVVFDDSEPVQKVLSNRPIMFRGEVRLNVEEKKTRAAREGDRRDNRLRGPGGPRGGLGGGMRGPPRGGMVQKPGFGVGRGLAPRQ
Method: RNA Bind-n-Seq
Form: RNA
Medium: in vitro
Tested at: 200 nM
Notes: whole 134-nt RNA, ends assumed
Added: 150 mM LiCl
Relative to: input library
Reading: higher = stronger binding
Library: 7-deaza-guanosine replaces G
Constant ends, left off below: GGGAGUUCUACAGUCCGACGAUC … UGGAAUUCUCGGGUGUCAAGG
For `CACAGACAACACGCACCCACACAGACACAGAGGGAAGGGGUUGGGAUGGGGACAGGGUGCACAGUAGGGCGGGGUAGGACCCCAGCCCCU`, the log2 enrichment was -0.0919.
With `CACAGACAACACGCACCCACACAGACACAGAGGGAAGGGGUUGGGAUGGGGACAGGGUGCACAAAAGGGCGGGGUAGGACCCCAGCCCCU` the log2 enrichment was -0.00424.
The log2 enrichment of `GCAGGAAGUAAAAACCAAUGGAAAUGCUUCGGAUAGUGGCAGGGGUGGGGGUUGCUAAGGAAAGGGUGGGAUGGGAGUGGGUAAAGAGUU` is reported as 0.071.
The log2 enrichment of `UGUGCUACACAUCGUAUGUACCGAAUCGGGUUUUUUUGGGGUUUUUUUGGGUUUUUUUGGGGAAAGUAUUAUGUUACGCCGUUCGGAUCU` is reported as 1.78.
The log2 enrichment of `GUCCUGUGCUACACAUCGUAUGUACCGAAUCGGGGUUUUUUUGGGGUUUGGGGUGGGGAAAGUAUUAUGUUACGCCGUUCGGAUCUGCAC` is reported as -0.785.
With `UGGCCCUGGUGGCAUGCGGGGAGGAAGAGGUGGCCUCAUGGAUCGUGGUGGGCCCGGUGGAAUGUUCAGAGGUGGCCGUGGUGGAGACAG` the log2 enrichment was 0.896.
`GUCCUGUGCUACACAUCGUAUGUACCGAAUCAAAUUUAAACCCCCCCAAACCCCCAAAAAAGUAUUAUGUUACGCCGUUCGGAUCUGCAC` has a log2 enrichment of 0.416.
The log2 enrichment of `UUAAGUUGAAGGAGCGCUACCGCAACGUGCUGGACACCAUGUUCGAGCUGCUGCCCCGGAUGGCCAGGUACUGCCAGCCCCCACCCUGGC` is reported as -0.14.
For `CACAGACAGCACGCACCCACACAGACACAGAGGGAAGGGGUUGGGAUGGGGACAGGGUGCACAGCAGGGCGGGGUAGGACCCCAGCCCCU`, the log2 enrichment was 0.341.
`GCAGGAAGUAAAAACAAAUGGAAAUGCUUCGGAUAGUGGCAGGGGUGGGGGUUGCUAAGGAAACGGUGGGAUGGGAGUGGGUAAAGAGUU` gave a log2 enrichment of 0.0325.
For `GUCCUGUGCUACACAUCGUAUGUACCGAAUCGGUUUUUGGGGUUUUUGGGGUUUUUGGAAAGUAUUAUGUUACGCCGUUCGGAUCUGCAC`, the log2 enrichment was 0.0823.

Series 4
Target: RING finger protein unkempt homolog, zinc fingers 1-6, GST-SBP tag (UNK, Homo sapiens, UniProt Q9C0B0, residues 30-357)
UniProt Q9C0B0, sequence (30-357, looked up): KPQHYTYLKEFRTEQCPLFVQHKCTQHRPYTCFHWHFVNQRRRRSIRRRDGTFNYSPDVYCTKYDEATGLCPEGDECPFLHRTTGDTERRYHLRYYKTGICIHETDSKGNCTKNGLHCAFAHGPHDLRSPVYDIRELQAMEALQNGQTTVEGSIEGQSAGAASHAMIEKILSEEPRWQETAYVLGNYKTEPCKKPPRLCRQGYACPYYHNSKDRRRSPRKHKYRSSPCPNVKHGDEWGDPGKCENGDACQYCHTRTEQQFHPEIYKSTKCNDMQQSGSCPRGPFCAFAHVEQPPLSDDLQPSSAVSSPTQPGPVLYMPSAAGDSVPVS
Method: RNA Bind-n-Seq
Form: RNA
Medium: in vitro
Tested at: not given
Notes: RNA with constant flanks, human and mouse sites, ends assumed
Relative to: input RNA pool
Reading: higher = stronger binding
Constant ends, left off below: GGGAGUUCUACAGUCCGACGAUC … CAACAGAGGAUUGAGCAUCA
`AUAAGUUAUACUUUCCGUUCAGUUUGUGUUUGUUCCAUAUGCGGAGUGUGGCACUCUGGCUAGCUGAGUUCAGUUCCCACGGGGACUCCUGUUUCUUAGGAAGCAUGCCAAAUGCCAGCU` has a bound/input enrichment of 0.297 ratio.
`UUCUUCCUCCUAGACCUGAUGCAUGUGUGUCCCUGUACUGUCUGUUUCAAACAAUCAGUGUUGAUCUUCUCUUGCAAAAGAAAGUAACAUGAUCAGUUCUUUAUAAGAAGACCUAAGUAU` gave a bound/input enrichment of 0.309 ratio.
`GACCAUGAAUUAUGGAAUUUCCUAAAUGAAGCAUUCAGGAAUGGAAUGAGAGAAUGUCACAUAGAAAAUAAAUGAUUUUUAAGUUAUGUCUAUUAAUUUGACUCUAGAUAUAUAUAUUUA` gave a bound/input enrichment of 5.1 ratio.
`GAAUGUGGCUGGAAGGAUCAGUUGAAGGCACACUGUAAAGAGGUAAUUAAAGAAAAAGGACUAGAACACGUUACUGUUGAUGACUUGGUGGCUGAAAUCACUCCAAAAGGCAGAGCCCUG` gave a bound/input enrichment of 0.316 ratio.
`UACAUGGGAGAGACCACAGCCUUUGCCUCCAGGUUGGGAAAGAAGAGUUGAUGAUCGUGGAAGAGUUUAUUAUGUGGAUCAUAACACCAGAACAACAACCUGGCAGCGGCCUACUAUGGA` gave a bound/input enrichment of 0.236 ratio.
`ACUAAGAGUGAAAGUUGGAAAUGUGAUAUUUGUAAGAAAUCUUUUACUCGAAGACCACACUUGGAGGAACAUAUGAUUCUACAUUCUCAAGAUAAACCUUUUAAGUGUACCUAUUGUGAA` has a bound/input enrichment of 0.117 ratio.
`CUUAGUCCUGAUGCUGUCUAUGUACUGUGCUACUCUUUGAUUCUACUUUCCAUUGACCUCACUAGCCCUCAUGUGAAGAAUAAAAUGUCAAAAAGGGAAUUUAUUCGAAAUACCCGUCGC` has a bound/input enrichment of 0.422 ratio.
The bound/input enrichment of `CUUGAUGGCCUCCAAGCCGGAUAUCGACACAUUUCCCUUCGAAAUGAGGGAAAUAAACCAUUAUCACUACCAACAAUUUUCUGCAAUAUUGUUCUUAAAACAUAUGUGCCUGAUGGAUUU` is reported as 0.192 ratio.
The bound/input enrichment of `CUGCACCCUUCCCAGCCUGUUCUGUACUGGGGACAGCAGUCUUCUCCCUGUCCUCCCAUGUCCUAUAUCCACCCCUCCCCUUGGAAGGUCCUCCCCACAGUGACACUGGACAGCCCUGGG` is reported as 0.203 ratio.
`UUAUCCUGUUAUAGUGGUGUGCUGGAAUUCCCUGAGAUGGAACUGGUAAAUUACUUGACUGCUGCAAGUUUUCUUCAGAUGAGCCACAUUGUAGAACGGUGCACACAGGCCCUGUGGAAG` gave a bound/input enrichment of 0.635 ratio.
For `GAUGUGUGUGUGAUGGUUAUUUUGUUUUGUUUUGUUUUGUUUUGUGACAGGGUCUCUCUCCAUAGACAUAGUCCUGGCUAUUCUAGAGCUCACUGUGUAGACCAGGCUGGCCUUGAACAG`, the bound/input enrichment was 1.78 ratio.
